Assay results gathered from unrelated publications.
Protocols differ between the studies behind these lines. “And” joins repeats or separate records; there may be more than shown. ± gives the spread as reported.

Compound | tested on | assay | test system | setting | how to read | quantity | result
O=c1[nH]nc(OCCCc2ccc(Cl)cc2)c(NCc2cccnc2)c1Br | HEK293T | RNA-seq, measured: SERPINH1 mRNA |  | 10 µM, 6 h | baseline: vehicle | log2 fold change | -0.167
Cc1cccn2c(=O)c(/C=C3\SC(=S)N(CC(C)C)C3=O)c(NCCCOC(C)C)nc12 | LDR | silenced CMV-GFP reporter derepression, qHTS |  |  |  | efficacy | 29%
Nc1cccc2c1C(=O)N(C1CCC(=O)NC1=O)C2=O (stereo not shown) | bone marrow CD138+ myeloma cells | XTT |  | 1.2 µM, phenol red-free RPMI |  | viability | 70%
CCCCC1(CCCC)CN(c2ccccc2)c2cc(SC)c(OCC(=O)N[C@@H](C(=O)NCC(=O)O)c3ccccc3)cc2S(=O)(=O)C1 | differentiated Caco-2 | qPCR |  | 1 µM, compound pre-incubation, together with: 0.6 mM post-operative bile acid pools |  | FGF19 mRNA level | decreased
CSc1cc(Oc2ccnc3[nH]c(=O)cnc23)ccc1NC(=O)Nc1cc(C(C)(C)C)nn1-c1ccccc1 | patient-derived cell line | RPPA, measured: phosphorylated Tuberin | human | 1 µM, 4 h | baseline: DMSO | phospho ratio | 1.16
O=C(/C=C/C=C/C=C/C1CCCCC1)NC1=C[C@@](O)(/C=C/C=C/C=C/C(=O)NC2=C(O)CCC2=O)[C@@H]2O[C@@H]2C1=O | hmc18 | cell growth, inhibitor, CellTiter-Glo luminescence |  | 78 h | baseline: day 0 cell count | GI50 | 24.8 µM
O=C(Nc1nnc2n3c(Cc4ccccc4)n[nH]c3nc(-c3ccc(Cl)cc3)c1-2)c1ccccc1 | SR | SRB |  | 10 µM, NCI60 single-dose screen | baseline: untreated | cell growth | 89.3%
COc1cc2ncnc(Nc3ccc(Oc4ccccc4)cc3C)c2cc1OC | MeWo (NF1) | resazurin |  | 1 µM, 72 h, together with: trametinib 0 nM |  | viability | 92.1%
Cn1cc(C2=C(c3ccc(Cl)cc3Cl)C(=O)NC2=O)c2ccccc21 | primary human cortical neurons | Western blot |  | 5 µM, 48 h, together with: HIV Tat 100 ng/mL and maraviroc 2.5 µM | baseline: Tat-treated cells, increase | NFL protein level | 2.27 fold
COc1ccc(NC(=O)c2sc3nc(-c4ccc(OC)cc4)cc(C(F)(F)F)c3c2N)cc1 | LDR | silenced CMV-GFP reporter derepression, qHTS |  |  |  | efficacy | 100%
Clc1nc(NCc2ccco2)c2[nH]cnc2n1 | FD iPSC-derived cardiomyocytes | alternative splicing, RNA-seq, measured: GSN exon chr9(+):121300055-121300126 |  | unit not given | baseline: DMSO minus compound | ΔPSI | -0.322
CCCCN1C[C@H](O)[C@@H](O)[C@@H](O)[C@H]1CO | sample F patient fibroblasts | Gb3 level lowering, LC-MS/MS, measured: Gb3 d18:1/20:0 |  | 216 h |  | IC50 | 8.8 µM
CCCCCCCCCCCCCCCC(NCc1ccccc1O)=C1C(=O)OC(CO)C1=O (stereo not shown) | G2-synchronized tsFT210 cells | flow cytometry |  | 5 µM, 4 h, 32 °C, release from G2 arrest |  | G2/M phase cells | 29.1%
CSCC[C@H](NC(=O)[C@H](Cc1ccc(OS(=O)(=O)O)cc1)NC(=O)[C@@H](N)CC(=O)O)C(=O)NCC(=O)N[C@@H](Cc1c[nH]c2ccccc12)C(=O)N[C@@H](CCSC)C(=O)N[C@@H](CC(=O)O)C(=O)N[C@@H](Cc1ccccc1)C(N)=O | HEK293T control virus | agonist, calcium mobilization |  | 10000 nM, no receptor expressed | higher = more calcium release | calcium response | 0.0894 a.u. and 0.0848 a.u.
Cc1nn(-c2ccccc2)c(C)c1C(=O)Nc1ccc2ccccc2n1 | HEK293 Wnt luciferase reporter | Wnt signaling |  | 1 µM |  | inhibition | > 70%
Cn1nc(-c2ccc(Cl)cc2)nc2c(=O)n(C)c(=O)nc1-2 | LDR | silenced CMV-GFP reporter derepression, qHTS |  |  |  | efficacy | 33%
CCNc1nc(Nc2ccc(F)c(Cl)c2)c2ccccc2n1 | Vero | MTT |  | 500 µg/mL |  | cytotoxicity | 93.1%
COc1ccc2c(N(C)c3ccc(/C(C)=N/OCCN)cc3)c3c(Cl)coc3nc2c1 | LNCaP C-81, docetaxel-resistant | trypan blue exclusion |  | 1 µM, 72 h |  | growth inhibition | 70 to 80%
Cc1cc(Nc2ncc(Cl)c(Nc3ccccc3S(=O)(=O)C(C)C)n2)c(OC(C)C)cc1C1CCNCC1 | CLB-GE | phosphoproteomics LC-MS/MS, measured: BRD2 phosphorylation |  | 200 nM, 60 min | baseline: untreated | log2 fold change | -4.03
O=C(O)Cc1c[nH]c2ccccc12 |  | binding, MIDAS equilibrium dialysis LC-MS | A2AR-BRIL thermostabilized | concentration not given | baseline: no-protein control | log2 fold change | -0.244
CCc1ccc(NC(=O)Nc2c[nH]c3ccccc23)cc1 | RAW-ISG | western blot |  | concentration not given, together with: poly(I:C) | baseline: vehicle | phospho-TBK1/TBK1 ratio | 0.56
C=CC(=O)N1CCC[C@@H](n2nc(-c3ccc(Oc4ccccc4)cc3)c3c(N)ncnc32)C1 | REC-BTK^C481S | cell growth |  | 72 h |  | GI50 | 24.6 µM
c1ccc2[nH]ccc2c1 | HCT-8 | RNA-seq, measured: ARRDC3 |  | concentration not given |  | mRNA level, LS mean | 77 counts per million
C=CC1=C(C)c2cc3[n-]c(cc4nc(cc5[n-]c(cc1n2)c(C)c5C=C)C(C)=C4CCC(=O)O)c(CCC(=O)O)c3C.[Zn+2] | SH-SY5Y | RNA-seq, measured: TGM2 mRNA |  | 5 µM, 5 h | baseline: untreated cells | fold change | 2
CCn1cc(-c2cc(Cn3ccoc3=N)cc3c2CCN([C@@H](C)c2cc(OC)ccn2)C3=O)c(C(F)(F)F)n1 | SHP77 | cell growth, inhibitor |  | 120 h |  | EC50 | 1.41 µM

Compound | tested on | assay | test system | setting | how to read | quantity | result
O=C(C[C@@H](C(F)F)n1ccc(F)n1)N1CCC(O)(Cn2cnc3c(cnn3-c3ccc(F)cc3)c2=O)CC1 | CHP-212 resistant | PI flow cytometry |  | 0.1 µM, 24 h |  | G2/M phase cells | 13.2%
Cc1ccc(O)c(/C=C2\SC(N3CCCCC3)=NC2=O)c1 | NG108-cl | clomeleon fluorescence, measured: intracellular chloride reduction |  | 5 h |  | EC50 | inactive
N#CC1=C(N)n2c(s/c(=C\c3cccs3)c2=O)=C(C#N)C1c1cccs1 (stereo not shown) | LDR | silenced CMV-GFP reporter derepression, qHTS |  |  |  | efficacy | 114%
Cn1cc(-c2ccc(-c3cncc(Cl)c3N3CCC4(CCNC4=O)CC3)cc2)cn1 | COLO 205 | gene expression, microarray, measured: EMID1 mRNA |  | concentration not given, 2 h | baseline: untreated cells | log2 fold change | 1.3
Nc1ncnc2c1ncn2[C@@H]1O[C@H](CO)[C@@H](O)[C@H]1O | activated human T cells | measured: carbamoyl aspartate |  | 30 µM | baseline: DMSO | log2 fold change | 7.1 and 7.6 and 8.1
CCCCCCOC(=O)[C@]1(O)C[C@@H]2O[C@@]1(C)n1c3ccccc3c3c4c(c5c6ccccc6n2c5c31)C(=O)NC4 | SK-OV-3 | ATP |  | 0.1 µM, 4 days, 3D U-bottom low-attachment | baseline: untreated | relative cell number | 107%
CCOC(=O)c1cc2c(=O)n3ccccc3nc2n(Cc2ccco2)c1=NC(=O)c1ccc(Br)cc1 | LDR | silenced CMV-GFP reporter derepression, qHTS |  |  |  | efficacy | 60%
COc1ccc(-n2nc(C(C)=O)s/c2=N\N=C(/C)c2ccc(NC(=O)c3ccc(Cl)cc3)cc2)cc1 | MCF7 |  |  | 2.5 µM |  | toxicity | 93.5%
CC/C(=N\NC(=O)NCc1cccc(O)c1)c1ccc(O)c(C)c1O | SK-OV-3 | Western blot | 3D culture in gellan gum | 10 µM, 1 h, unit not given | baseline: β-actin | TAZ protein level | 0.97 ± 0.31
CCCN1CCN(c2ccc3[nH]c(-c4ccc5[nH]c(-c6ccc(OCC)c(OCC)c6)nc5c4)nc3c2)CC1 | SR | SRB |  | 10 µM, 48 h |  | growth percent | 20.9%
Nc1nnc(-c2ccccc2O)cc1N1CCN(Cc2ccc(OCCOCCNc3cccc4c3C(=O)N(C3CCC(=O)NC3=O)C4=O)c(F)c2)CC1 (stereo not shown) | H1975 SMARCA4 wild type | ATAC-seq |  | 1 µM, 96 h |  | lost enhancer peaks | 8%
CCn1cc(-c2cc(Cn3ccnc3)cc3c2CCN([C@H](c2cc(OC)ccn2)C2CC2)C3=O)c(C(F)(F)F)n1 | HT55 | cell growth, inhibitor |  | 120 h |  | EC50 | 3.12 µM
CN(C)CC(=O)O |  | binding, MIDAS equilibrium dialysis LC-MS | A2AR-BRIL thermostabilized | concentration not given | baseline: no-protein control | log2 fold change | -0.122
O=P1(C2CCCCC2)CCCCC1 | SW480 | Annexin V-FITC/PI flow cytometry |  | IC50, 72 h |  | late apoptotic cells | 6.05%
Cn1cnc2c1c(=O)n(CC(=O)Nc1c(Cl)cccc1Cl)c(=O)n2C | Vero | MTT |  | 500 µg/mL |  | cytotoxicity | 74.7%
COc1cc(/C=C/C(=O)N2CCC=CC2=O)cc(OC)c1OC | MDA-MB-468 | qRT-PCR, measured: PTGIS |  | 30 µM, 6 h | baseline: time zero | mRNA level | 61.4 ± 11%
Cc1cnc2ccc3c(c2n1)N1CCC(O)N=C1N3C (stereo not shown) | BALB/c 3T3 | colony forming efficiency |  | 0.5 µM |  | colony number | 102 colonies per plate and 101 colonies per plate
COc1cnc2cccc(N3CCc4c(cc(Cn5ccnc5C)cc4-c4cn(C)nc4C(F)(F)F)C3=O)c2c1 | HEC-251 | cell growth, inhibitor |  | 120 h |  | EC50 | > 30 µM
CN(C)S(=O)(=O)c1cccc(NC(=S)N/N=C/c2ccco2)c1 | LDR | silenced CMV-GFP reporter derepression, qHTS |  |  |  | efficacy | 121%
CC(=O)Nc1cccc(-n2c(=O)n(C3CC3)c(=O)c3c(Nc4ccc(I)cc4F)n(C)c(=O)c(C)c32)c1 | MeWo (NF1) | cell viability, resazurin |  | 50.00 nM, 72 h | baseline: DMSO | average fractional effect | 46%
Cn1cc(Nc2nccc(-c3ccc4c(c3)CN(C3COC3)CC[C@H]4NC(=O)c3cn(C(C)(C)C)nn3)n2)cn1 | mouse splenic B cells | measured: Triacylglycerol biosynthesis |  | 30 mg/kg, IgD-activated in vivo | baseline: vehicle, direction not given | pathway activation z-score | -0.816
Cc1nc(N(Cc2ccccc2)c2ccc3c(c2)/C(=C/c2ccccc2)C(=O)N3Cc2ccccc2)c2ccccc2n1 (mixture of isomers) | LLC |  |  | 0.5 µM, 24 h | baseline: untreated | reduction of wound healing rate | 8.73%
CC(C)NCC(O)c1ccc(O)c(O)c1 (stereo not shown) | mouse ventricular cardiomyocytes |  |  | dose not given, 0 s |  | sarcomere length | 1.8 µm
Cn1cc(-n2cnc3c(NCc4nc5cc(Cl)c(Cl)cc5[nH]4)nc(N4CCOCC4)nc32)cn1 | MDA-MB-231 | cell viability, CellCounting-Lite |  | 666.7 nM, 37 °C | higher = more viable cells | luminescence signal | 10800 a.u. and 8690 a.u.

Repeated from above:
Compound | tested on | assay | test system | setting | how to read | quantity | result
CC/C(=N\NC(=O)NCc1cccc(O)c1)c1ccc(O)c(C)c1O | SK-OV-3 | Western blot | 3D culture in gellan gum | 10 µM, 1 h, unit not given | baseline: β-actin | TAZ protein level | 0.97 ± 0.31
Cn1nc(-c2ccc(Cl)cc2)nc2c(=O)n(C)c(=O)nc1-2 | LDR | silenced CMV-GFP reporter derepression, qHTS |  |  |  | efficacy | 33%
Cc1cnc2ccc3c(c2n1)N1CCC(O)N=C1N3C (stereo not shown) | BALB/c 3T3 | colony forming efficiency |  | 0.5 µM |  | colony number | 102 colonies per plate and 101 colonies per plate
COc1ccc(-n2nc(C(C)=O)s/c2=N\N=C(/C)c2ccc(NC(=O)c3ccc(Cl)cc3)cc2)cc1 | MCF7 |  |  | 2.5 µM |  | toxicity | 93.5%
